{"data": "Assay results collected from several papers", "note": "Protocols differ between the studies behind these lines. Numbers after ± are the reported error."}
{"SMILES": "O=C(c1ccccc1)c1ccc2n1CCC2C(=O)O (centres unmarked)", "system": "New Zealand White rabbit, male, plasma", "conditions": "oral, 10 mg/kg drug equivalent", "AUC(0-inf)": "137000 ± 2170 ng·h/mL"}
{"SMILES": "CC[C@H](C)CCCCC(=O)N[C@@H](CCN)C(=O)N[C@H](C(=O)N[C@@H](CCN)C(=O)N[C@H]1CCNC(=O)[C@H]([C@@H](C)O)NC(=O)[C@H](CCN)NC(=O)[C@H](CCN)NC(=O)[C@H](CC(C)C)NC(=O)[C@@H](Cc2ccccc2)NC(=O)[C@H](CCN)NC1=O)[C@@H](C)O", "system": "ESKD on long-term intermittent haemodialysis, plasma", "conditions": "intravenous infusion, 0.75 mg/kg single dose over 1 h, arithmetic mean", "AUC(0-inf)": "32300 ng·h/mL"}
{"SMILES": "CCCCCCCCCCCCCCCC(=O)N[C@@H](CCC(=O)NCCCC[C@@H]1NC(=O)[C@H]([C@@H](C)CC)NC(=O)[C@@H](NC(=O)[C@@H]2CCCN2C(=O)[C@H](Cc2ccccc2)NC(=O)[C@H](Cc2c[nH]cn2)NC(=O)[C@@H](NC(=O)[C@H](CC(=O)O)NC(=O)CC(C)C)[C@@H](C)O)CSSC[C@@H](C(=O)N[C@@H](CCCCN)C(N)=O)NC(=O)CNC(=O)[C@H](CCCCN)NC(=O)[C@H](CO)NC(=O)[C@H](CCCNC(=N)N)NC(=O)[C@@H]2CCCN2C(=O)[C@H](CCC(=O)O)NC(=O)[C@H](Cc2ccccc2)NC1=O)C(=O)O", "system": "healthy volunteers, plasma", "conditions": "subcutaneous, 20 mg single, lyophilised formulation", "AUC(0-inf)": "21600 ± 5130 ng·h/mL"}
{"SMILES": "O=C(c1cccnc1-c1ccncc1)N1CCC(O)(Cc2ccccc2)CC1", "system": "healthy Japanese adults, plasma", "conditions": "oral, 200 mg single dose", "AUC(0-inf)": "720 ng·h/mL"}
{"SMILES": "CCCCC[C@H](O)CC[C@@H]1[C@H]2Cc3cccc(OCC(=O)O)c3C[C@H]2C[C@H]1O", "system": "healthy Japanese adults, plasma", "conditions": "inhaled, 18 µg single dose, scaled by body weight/60 kg", "AUC(0-inf)": "0.33 ± 0.07 ng·h/mL"}
{"SMILES": "Oc1ccc([C@@H](O)c2cc(-c3ncnc4cc(N5CCOCC5)ccc34)c(F)cc2Cl)nn1", "test": "geometric mean", "system": "healthy volunteers, plasma", "conditions": "oral, 100 mg, high-fat fed tablet", "AUC(0-inf)": "454 ng·h/mL"}
{"SMILES": "COc1cc(C(=O)NC2CCN(C)CC2)c(F)cc1Nc1ncc(C(F)(F)F)c(Oc2cccc3c2C(=O)N(C)C3)n1", "system": "cancer patients, plasma", "conditions": "oral, 100 mg single dose, cycle 1 day 1, geometric mean", "AUC(0-inf)": "23 µM·h"}
{"SMILES": "OC[C@H]1O[C@@H](c2cc(Cc3ccc(C4CC4)cc3)c(Cl)c3c2CCO3)[C@H](O)[C@@H](O)[C@@H]1O", "system": "healthy Korean adults, fasted, plasma", "conditions": "oral, 0.3 mg single dose, separate tablets, with: co-administered drug 50 mg", "AUC(0-inf)": "36.1 ± 10.2 ng·h/mL"}
{"SMILES": "C[C@H]1CN(C(=O)CC#N)[C@]12CCN(c1ncnc3[nH]ccc13)C2", "system": "healthy Japanese males, plasma", "conditions": "oral, 50 mg single dose", "AUC(0-inf)": "1820 ng·h/mL"}
{"SMILES": "CS(=O)(=O)c1ccc([C@@H](O)[C@@H](CF)NC(=O)C(Cl)Cl)cc1", "system": "Arbor Acres chickens, plasma", "conditions": "oral, 20 mg/kg, with: quercetin 40 mg/kg pretreatment", "AUC(0-inf)": "45100 ± 1320 ng·h/mL"}
{"SMILES": "CC(=O)N[C@H]1CC[C@H](NC(=O)CN2CCN(c3nncc(-c4ccc(C)cc4)n3)CC2)CC1", "system": "men aged 18-55 years, plasma", "conditions": "oral, 100 mg single dose, study", "AUC(0-inf)": "5360 ng·h/mL"}
{"SMILES": "CCCS(=O)(=O)N[C@H]1C[C@@H](N(C)c2ncnc3[nH]ccc23)C1", "system": "healthy volunteers, plasma, total", "conditions": "oral, 200 mg single dose, alone", "AUC(0-inf)": "3880 ng·h/mL"}
{"SMILES": "N[C@@H](CC(=O)N1CCc2c(nc(C(F)(F)F)nc2C(F)(F)F)C1)CN1CC(F)(F)CCC1=O", "system": "healthy Korean adults, fasted, plasma", "conditions": "oral, 50 mg single dose, separate tablets, with: enavogliflozin 0.3 mg", "AUC(0-inf)": "1390 ± 268 ng·h/mL"}
{"SMILES": "CC(C)c1nc(N(C)S(C)(=O)=O)nc(-c2ccc(F)cc2)c1/C=C/[C@@H](O)C[C@@H](O)CC(=O)O", "system": "healthy volunteers, plasma", "conditions": "oral, 10 mg, day 8, BCRP probe, with: momelotinib, days 4-8, 200 mg, once daily", "AUC(0-inf)": "106 ng·h/mL"}
{"SMILES": "C=CC(=O)NC1CCN(c2ncc3ncnc(Nc4ccc(Oc5ccc6c(c5)ncn6C)c(C)c4)c3n2)CC1", "test": "refers to: total radioactivity", "system": "healthy male volunteers, plasma", "conditions": "intravenous, 100 µg, 14C microtracer, geometric mean", "AUC(0-inf)": "0.00362 µM·h"}
{"SMILES": "CC(=O)O[C@@]12CO[C@@H]1C[C@H](O)[C@@]1(C)C(=O)[C@H](O)C3=C(C)[C@@H](OC(=O)[C@H](O)[C@@H](NC(=O)OC(C)(C)C)c4ccccc4)C[C@@](O)([C@@H](OC(=O)c4ccccc4)[C@H]21)C3(C)C", "system": "patients, plasma", "conditions": "intravenous, dose not given, without co-administered drug", "AUC(0-inf)": "1110 ng·h/mL"}
{"SMILES": "Cc1c(C(=O)O)ccc2c3n(nc12)[C@@H]1[C@H](C3)N(CC2CC2)[C@@]2(C(=O)Nc3cc(Cl)ccc32)[C@H]1c1cccc(Cl)c1F", "system": "cancer patients, plasma", "conditions": "oral, 45 mg day 1 every 3 weeks, geometric mean, cycle 1", "AUC(0-inf)": "173 µM·h"}
{"SMILES": "CCCCOCCOc1ccc(-c2ccc3c(c2)/C=C(/C(=O)Nc2ccc([S@@+]([O-])Cc4cncn4CCC)cc2)CCCN3CC(C)C)cc1", "system": "mild hepatic impairment patients, plasma", "conditions": "oral, 150 mg, day 1, single dose, geometric mean", "AUC(0-inf)": "5540 ng·h/mL"}
{"SMILES": "C[C@@H](N)C1CCN(S(=O)(=O)c2cccc3cnccc23)CC1", "system": "healthy volunteers, fasted, plasma", "conditions": "oral, 25 mg", "AUC(0-inf)": "3.81 ng·h/mL"}
{"SMILES": "CCc1nc2c(C)cc(N3CCN(CC(=O)N4CC(O)C4)CC3)cn2c1N(C)c1nc(-c2ccc(F)cc2)c(C#N)s1", "system": "healthy volunteers, fed, plasma", "conditions": "oral, 600 mg single dose, day 1, capsule", "AUC(0-inf)": "49300 ng·h/mL"}
{"note": "Excerpt of the above:"}
{"SMILES": "CC(C)c1nc(N(C)S(C)(=O)=O)nc(-c2ccc(F)cc2)c1/C=C/[C@@H](O)C[C@@H](O)CC(=O)O", "system": "healthy volunteers, plasma", "conditions": "oral, 10 mg, day 8, BCRP probe, with: momelotinib, days 4-8, 200 mg, once daily", "AUC(0-inf)": "106 ng·h/mL"}
